Assay results gathered from unrelated publications.
Several values in a cell are separate wells, animals, samples, runs or records. Numbers after ± are the reported error.

| Structure (SMILES) | target or system | test | test system | conditions | how to read | endpoint | result |
| --- | --- | --- | --- | --- | --- | --- | --- |
| COc1cc2cc(-c3ccc(CC(=O)Nc4cc(C(C)(C)C(F)(F)F)no4)cn3)cnc2cc1OC |  | RECIST v1.1 | human RET-altered solid tumours | dose not given, phase I parts A and B |  | best overall response PR | 28% |
| O=C(O)CNC(=O)Cc1ccccc1 |  |  | ventricular cardiomyocytes, C57BL/6 mouse | dose not given, 0.864 s |  | sarcomere length | 1.62 µm |
| [Cl-].[Cl-].[Pt+2].[Ru+2].c1ccc(-c2nccnc2-c2ccccn2)nc1.c1cnc2c(c1)ccc1cccnc12.c1cnc2c(c1)ccc1cccnc12 |  |  |  | concentration not given, second substitution step, added: L-methionine |  | activation enthalpy | 10 ± 0.956 kcal/mol |
| C=CCn1c(=O)c2cnc(Nc3ccc(N4CCN(C)CC4)cc3)nc2n1-c1ccc2c(n1)[C@@](O)(CC)CC2 |  |  | human, target lesions | 400 mg 5:2 schedule, cycle 9 |  | target lesion reduction | 71% |
| C[C@H](Oc1ccc(Br)cc1-c1ccon1)C(=O)O |  | last response latency | human, tibialis anterior muscle | 1200 mg, 15 Hz, SAD |  | difference from placebo | 1.74% |
| O=C(NS(=O)(=O)c1ccc(C(F)(F)F)cc1)c1cc2ccccc2n1Cc1ccc(Br)c2ccccc12 |  |  | male mouse, acute hyperuricaemia model, serum | oral, 2 mg/kg, 4 h |  | serum uric acid | 246 ± 110 µM |
| O=C(O)c1ccc(O)c2ncccc12 | OCI-Ly1 |  |  | 0.5 µM, 120 h |  | viability | 151% |
| CC(=O)NCC(=O)NCC(=O)N[C@H](C(=O)N[C@@H](Cc1ccc(O)cc1)C(=O)N[C@@H](CO)C(=O)N[C@H]1CSSC[C@@H](C(=O)N[C@@H](CCCNC(=N)N)C(=O)N2CCC[C@H]2C(=O)N[C@@H](CCC(N)=O)C(=O)N[C@@H](CCCNC(=N)N)C(=O)NCC(=O)NCCC(=O)N[C@@H](CCCCNC(=O)CN(CC(=O)NCCCC[C@H](NC(=O)CCNC(=O)CNC(=O)[C@H](CCCNC(=N)N)NC(=O)[C@H](CCC(N)=O)NC(=O)[C@@H]2CCCN2C(=O)[C@H](CCCNC(=N)N)NC(=O)[C@@H]2CSSC[C@H](NC(=O)[C@H](CO)NC(=O)[C@H](Cc3ccc(O)cc3)NC(=O)[C@@H](NC(=O)CNC(=O)CNC(C)=O)[C@@H](C)O)C(=O)N[C@@H](Cc3c[nH]cn3)C(=O)N[C@@H](Cc3ccccc3)C(=O)NCC(=O)N[C@@H](C)C(=O)N[C@@H](CC(C)C)C(=O)N[C@@H]([C@@H](C)O)C(=O)N[C@@H](Cc3c[nH]c4ccccc34)C(=O)N[C@@H](C(C)C)C(=O)N2)C(N)=O)C(=O)CCN)C(N)=O)NC(=O)[C@H](C(C)C)NC(=O)[C@H](Cc2c[nH]c3ccccc23)NC(=O)[C@H]([C@@H](C)O)NC(=O)[C@H](CC(C)C)NC(=O)[C@H](C)NC(=O)CNC(=O)[C@H](Cc2ccccc2)NC(=O)[C@H](Cc2c[nH]cn2)NC1=O)[C@@H](C)O |  |  | healthy BALB/c mice | subcutaneous, 0.08 mg/kg, 4 d, single dose |  | haemoglobin | 166 g/L |
| [Cl-].[Cl-].[Pt+2].[Ru+2].c1ccc(-c2nc3cc4ccccc4cc3nc2-c2ccccn2)nc1.c1cnc2c(c1)ccc1cccnc12.c1cnc2c(c1)ccc1cccnc12 |  | chloride substitution, UV-vis kinetics | aqueous buffer | pH 7.2, 35 °C, second substitution step, added: guanosine 5'-monophosphate |  | activation free energy | 20.3 ± 1.2 kcal/mol |
| CCN(CC)Cc1ccc2cc(COC(=O)Nc3ccc(C(=O)NO)cc3)ccc2c1 | OCI-Ly1 |  |  | 0.1 µM, 120 h |  | viability | 62.2% |
| NC/C(=C\F)COc1cccc(Cn2c(=S)[nH]c(=O)c3[nH]cnc32)c1 |  |  | rats, myocardial ischaemia/reperfusion (LAD ligation) | dose not given |  | ejection fraction | 61.1% and 78.3% and 76.2% and 70.9% and 81.7% |
| Cc1nc(-c2ccc(OCC(C)C)c(C#N)c2)sc1C(=O)O |  |  | mouse, acute hyperuricaemia model, serum | oral, 2 mg/kg | reference: vehicle model | serum uric acid decrease | 96.2% |
| CNCc1cc(-c2ccccc2F)n(S(=O)(=O)c2cccnc2)c1 |  | oesophageal lesions | rat reflux oesophagitis | oral, single dose |  | ED50 | 1.2 mg/kg |
| Cc1n[nH]c2ccc(-c3cc(OC[C@@H](N)Cc4ccccc4)cnc3-c3ccoc3)cc12 |  | kinase binding, competitor, MIB/MS competition, refers to: GIN4 | Candida albicans cell lysate | 1 µM | reference: DMSO | log2 fold change | -0.162 |
| O=C1Nc2cc3[nH]nc(-c4ccncc4)c3cc2CN1Cc1ccccc1 |  | RECIST v1.1 | human, relapsed or refractory advanced solid tumours | intravenous, 4.8 mg/kg |  | progressive disease, best response | 33% |
| c1ccc(-c2cc(-c3ccccc3)n(Cn3ccnc3)n2)cc1 |  |  | rat, STZ-nicotinamide diabetic | 150 mg/kg, 168 h, full-thickness excision wound |  | wound size | 16.6 mm |
| CCCS(=O)(=O)NC(=O)c1cc2ccccc2n1Cc1ccc(C2CC2)c2ccccc12 |  |  | mouse, acute hyperuricaemia model, serum | oral, 2 mg/kg | reference: vehicle model | serum uric acid decrease | 80% |
| OC[C@H]1O[C@@H](c2ccc(Cl)c(Cc3ccc(O[C@H]4CCOC4)cc3)c2)[C@H](O)[C@@H](O)[C@@H]1O |  |  | Japanese type 1 diabetes patients | 10 mg, day 7, 168 h | reference: baseline | systolic blood pressure change | -2.7 mmHg |
| CN[C@@H]1COc2c(S(=O)(=O)NC(=O)Nc3c4c(cc5c3CCC5)CCC4)cnn2C1 |  | refers to: IL-1β | human participants, whole blood ex vivo | 450 mg single dose, 24 h, added: LPS/ATP | reference: baseline | inhibition | 89.2% |
| O=S(=O)(NCCNC/C=C/c1ccc(Br)cc1)c1cccc2cnccc12 |  |  | mouse zygotes | 20 µM, 96 h post-hCG |  | embryos reaching 4-cell | 5% and 5.88% |
| Cc1cc([C@H]2C[C@H]3[C@@H](CF)SC(N)=N[C@@]3(c3ccc(F)cc3F)CO2)on1 |  | refers to: Aβx-40 | wild-type mouse, brain | subcutaneous, 100 mg/kg, 14 h |  | brain Aβ40 level | 2.96 ng/g |

| Structure (SMILES) | target or system | test | test system | conditions | how to read | endpoint | result |
| --- | --- | --- | --- | --- | --- | --- | --- |
| Nc1nc2cc(-c3ccc4ncc(C(=O)N5CCOCC5)n4c3)ccc2o1 |  | RECIST v1.1 | advanced solid tumour patients | dose not given |  | median partial response duration | 7 months |
| O=P(O)(O)C(Cl)(Cl)P(=O)(O)O |  |  | Mus musculus, sham-operated, hippocampal fissure | concentration not given, day 1 | reference: total area | GFAP-positive area | 4.26% and 3.29% and 3.15% |
| Cc1cc(C(C)(C)C)c(O)c(C(C)(C)C)c1 |  | Cu2+ reduction, CUPRAC |  | 30 µg/mL |  | absorbance | 0.454 ± 0.052 |
| NC(=O)c1cnc2[nH]ccc2c1N[C@@H]1[C@@H]2CC3C[C@H]1C[C@@](O)(C3)C2 |  | CD8+ naive T cells, flow cytometry | Japanese humans, peripheral blood | 200 mg single dose | reference: baseline | percent change | -0.97% |
| O=C(O)CCc1nccc2c3ccccc3n(Cc3ccc(Br)c4ccccc34)c12 |  |  | male mouse, acute hyperuricaemia model, serum | oral, 2 mg/kg, 4 h |  | serum uric acid | 336 ± 108 µM |
| Cc1nn(-c2nc3c(F)cc(F)cc3s2)c(O)c1C(c1ccc(C(F)(F)F)cc1)c1c(C)nn(-c2nc3c(F)cc(F)cc3s2)c1O |  |  | mouse, cerulein-induced acute pancreatitis, serum | 25 mg/kg |  | serum amylase activity | 153 mOD/min and 132 mOD/min and 129 mOD/min and 94.3 mOD/min and 183 mOD/min and 68.3 mOD/min and 86 mOD/min |
| CC(C)NCC(O)c1ccc(O)c(O)c1 (stereo not drawn) |  |  | ventricular cardiomyocytes, C57BL/6 mouse | dose not given, 0.696 s |  | sarcomere length | 1.72 µm |
| C[C@H]1C[C@H]2CSC(N)=N[C@@]2(c2nc(NC(=O)c3ccc(OC(F)F)cn3)cs2)CO1 |  |  | healthy adults, fed, plasma | oral, 200 mg single dose, 8 h | reference: baseline, placebo-adjusted | plasma Aβ1-40 change | -80.7% |
| C[C@@H](NC(=O)N1C(=O)[C@H](Cc2ccnc(N)c2)[C@H]1C(=O)O)C1CCCCC1 |  |  | human | iv infusion, 1.0 mg/kg/h, 24 h |  | aPTT AUEC | 7240 h·s |
| NCC(=O)Nc1cncc(-c2nn3c(=O)cc(N4CCNCC4)nc3s2)c1 |  | ADP-induced platelet aggregation, light transmission aggregometry | human, stable CAD on aspirin, ex vivo platelets | subcutaneous, 0.05 mg/kg, 240 min post-dose, median value, added: ADP 20 µM |  | inhibition | 10.6% |
| N#Cc1ccc2c(c1)[C@H]1CCCN(C(=O)c3ccc4[nH]cnc4c3)[C@H]1C2 |  | refers to: Triglycerides | human | 240 mg once daily, day 28, adjusted mean, added: metformin | reference: placebo | change from baseline | -32.5 mg/dL |
| Cc1sc2c(c1C)C(c1ccc(Cl)cc1)=N[C@@H](CC(=O)NCCCCCCCCNC(=O)COc1cccc3c1C(=O)N(C1CCC(=O)NC1=O)C3=O)c1nnc(C)n1-2 (stereo partly drawn) |  | flow cytometry | mice, 4T1 tumour | dose not given |  | M2 macrophages | 7.58% and 6.61% and 7.38% and 6.87% |
| COc1ccc([C@@H](O)c2cc(-c3ncnc4cc(N5CCOCC5)ccc34)c(F)cc2Cl)nn1 |  | RECIST version 1.1 | patients, advanced solid tumours | 100 mg twice daily, added: avelumab | reference: patients | disease control rate | 2% |
| N#Cc1ccc2c(c1)[C@H]1CCCN(C(=O)c3ccc4[nH]cnc4c3)[C@H]1C2 |  |  | T2DM patients with overweight or obesity, plasma | oral, 80 mg, day 15 (360 h), multiple dosing, mean |  | plasma 1,5-anhydroglucitol | 15.1 µg/mL |
| Cc1cc(Nc2ncc(Cl)c(Nc3ccccc3S(=O)(=O)C(C)C)n2)c(OC(C)C)cc1C1CCNCC1 |  |  | patients with advanced solid tumours | dose not given |  | median overall survival | 10.2 months |
| CC(C)n1c(C2CCNCC2)nc2c([N+](=O)[O-])c(Br)c(Br)cc21 |  |  | patients with AML, bone marrow | all dose levels |  | minimum blast reduction | -4% |
| COc1cccc2c1c(O)c(C(=O)N(C)c1ccc(C(F)(F)F)cc1)c(=O)n2C |  |  | mouse, CP model, serum | 0.154 µmol/kg, 4 weeks |  | serum TNF-alpha | decreased |
| CC(C)[C@H](C(=O)Nc1ccc(C(=O)NO)cc1)c1ccccc1 |  | volumetric MRI | human, left foramen magnum tumour | dose not given, day 373 | reference: baseline | tumour volume change | -4% |
| C[C@H]1O[C@@H](O[C@H]2CC[C@@]3(C)[C@@H](CC[C@]4(C)[C@@H]3C=C[C@]35OC[C@@]6(CCC(C)(C)C[C@H]63)[C@@H](O)C[C@]54C)[C@]2(C)CO)[C@H](O)[C@@H](O[C@@H]2O[C@H](CO)[C@@H](O)[C@H](O)[C@H]2O)[C@H]1O |  |  | chronic-plus-binge ethanol mice, plasma | oral, 5 mg/kg/day for 7 d, 168 h |  | γ-GT activity | 36.9 U/L and 38.9 U/L and 30.9 U/L and 36.2 U/L and 26.1 U/L and 33.9 U/L and 34 U/L and 29.9 U/L |
| COC(=O)c1sc(-c2cccs2)cc1NC(=O)/C=C/C(=O)O |  | ELISA | bone marrow-derived macrophages, C57BL/6J mice | dose not given, 48 h, added: LPS 24 h |  | TNF-α release | decreased |
| CN(C)C(=O)c1cc2cnc(Nc3ccc(N4CCNCC4)cn3)nc2n1C1CCCC1 |  | RNA-seq GSEA, refers to: HALLMARK_APICAL_JUNCTION | MB002 tumour | concentration not given, in vivo | reference: vehicle, direction not given | GSEA enrichment score | -0.234 |

For quick reference, copied from above:
| Structure (SMILES) | target or system | test | test system | conditions | how to read | endpoint | result |
| --- | --- | --- | --- | --- | --- | --- | --- |
| Cc1sc2c(c1C)C(c1ccc(Cl)cc1)=N[C@@H](CC(=O)NCCCCCCCCNC(=O)COc1cccc3c1C(=O)N(C1CCC(=O)NC1=O)C3=O)c1nnc(C)n1-2 (stereo partly drawn) |  | flow cytometry | mice, 4T1 tumour | dose not given |  | M2 macrophages | 7.58% and 6.61% and 7.38% and 6.87% |
| COc1ccc([C@@H](O)c2cc(-c3ncnc4cc(N5CCOCC5)ccc34)c(F)cc2Cl)nn1 |  | RECIST version 1.1 | patients, advanced solid tumours | 100 mg twice daily, added: avelumab | reference: patients | disease control rate | 2% |
| N#Cc1ccc2c(c1)[C@H]1CCCN(C(=O)c3ccc4[nH]cnc4c3)[C@H]1C2 |  |  | T2DM patients with overweight or obesity, plasma | oral, 80 mg, day 15 (360 h), multiple dosing, mean |  | plasma 1,5-anhydroglucitol | 15.1 µg/mL |
| Cc1cc(Nc2ncc(Cl)c(Nc3ccccc3S(=O)(=O)C(C)C)n2)c(OC(C)C)cc1C1CCNCC1 |  |  | patients with advanced solid tumours | dose not given |  | median overall survival | 10.2 months |
| CC(C)n1c(C2CCNCC2)nc2c([N+](=O)[O-])c(Br)c(Br)cc21 |  |  | patients with AML, bone marrow | all dose levels |  | minimum blast reduction | -4% |
